Experimental data of several laboratories.
A part holds a random share of what one study measured. Values joined by “and” are separate records of one study, mostly repeats; a detail may differ.
Sequence of UniProt Q01959 (whole entry, looked up): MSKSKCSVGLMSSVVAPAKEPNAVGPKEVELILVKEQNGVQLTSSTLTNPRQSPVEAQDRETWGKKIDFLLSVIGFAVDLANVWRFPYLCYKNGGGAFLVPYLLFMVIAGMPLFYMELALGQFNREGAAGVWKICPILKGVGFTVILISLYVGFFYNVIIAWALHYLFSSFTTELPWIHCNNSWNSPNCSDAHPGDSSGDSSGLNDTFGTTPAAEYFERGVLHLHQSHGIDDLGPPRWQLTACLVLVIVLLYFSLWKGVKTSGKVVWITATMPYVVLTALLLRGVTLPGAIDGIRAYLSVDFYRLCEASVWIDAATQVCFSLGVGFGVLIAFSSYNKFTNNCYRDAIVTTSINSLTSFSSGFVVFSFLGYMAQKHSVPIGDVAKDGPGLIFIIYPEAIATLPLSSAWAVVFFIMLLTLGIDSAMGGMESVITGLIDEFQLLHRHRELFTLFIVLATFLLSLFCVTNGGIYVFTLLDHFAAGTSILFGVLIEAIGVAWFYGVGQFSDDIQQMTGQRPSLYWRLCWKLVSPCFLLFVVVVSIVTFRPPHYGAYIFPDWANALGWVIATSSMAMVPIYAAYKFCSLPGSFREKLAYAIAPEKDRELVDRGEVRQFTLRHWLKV
Sequence of UniProt P35462 (whole entry, looked up): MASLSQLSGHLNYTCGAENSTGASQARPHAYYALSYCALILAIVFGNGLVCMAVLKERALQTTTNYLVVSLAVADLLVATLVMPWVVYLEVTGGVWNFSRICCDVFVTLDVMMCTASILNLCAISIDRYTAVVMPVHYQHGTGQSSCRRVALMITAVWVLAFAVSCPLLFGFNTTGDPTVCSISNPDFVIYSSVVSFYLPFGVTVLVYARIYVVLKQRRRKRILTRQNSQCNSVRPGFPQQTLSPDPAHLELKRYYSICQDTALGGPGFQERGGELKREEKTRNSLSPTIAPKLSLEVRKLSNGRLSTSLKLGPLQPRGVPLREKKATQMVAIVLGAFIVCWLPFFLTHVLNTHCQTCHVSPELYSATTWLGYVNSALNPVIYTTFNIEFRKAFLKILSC
Sequence of UniProt P18089 (whole entry, looked up): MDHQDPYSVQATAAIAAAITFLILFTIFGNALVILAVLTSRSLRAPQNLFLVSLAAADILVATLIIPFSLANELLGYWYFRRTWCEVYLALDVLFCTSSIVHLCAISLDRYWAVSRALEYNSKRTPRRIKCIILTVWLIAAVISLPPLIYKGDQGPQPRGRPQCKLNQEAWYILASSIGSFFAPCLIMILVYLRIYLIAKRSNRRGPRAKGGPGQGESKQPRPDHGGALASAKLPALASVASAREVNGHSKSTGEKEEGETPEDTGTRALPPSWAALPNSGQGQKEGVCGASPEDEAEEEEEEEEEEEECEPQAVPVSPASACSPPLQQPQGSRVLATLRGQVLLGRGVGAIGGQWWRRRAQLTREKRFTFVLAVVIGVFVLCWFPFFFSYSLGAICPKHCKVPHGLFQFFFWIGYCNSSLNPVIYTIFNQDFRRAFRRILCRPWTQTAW
Sequence of UniProt P20309 (whole entry, looked up): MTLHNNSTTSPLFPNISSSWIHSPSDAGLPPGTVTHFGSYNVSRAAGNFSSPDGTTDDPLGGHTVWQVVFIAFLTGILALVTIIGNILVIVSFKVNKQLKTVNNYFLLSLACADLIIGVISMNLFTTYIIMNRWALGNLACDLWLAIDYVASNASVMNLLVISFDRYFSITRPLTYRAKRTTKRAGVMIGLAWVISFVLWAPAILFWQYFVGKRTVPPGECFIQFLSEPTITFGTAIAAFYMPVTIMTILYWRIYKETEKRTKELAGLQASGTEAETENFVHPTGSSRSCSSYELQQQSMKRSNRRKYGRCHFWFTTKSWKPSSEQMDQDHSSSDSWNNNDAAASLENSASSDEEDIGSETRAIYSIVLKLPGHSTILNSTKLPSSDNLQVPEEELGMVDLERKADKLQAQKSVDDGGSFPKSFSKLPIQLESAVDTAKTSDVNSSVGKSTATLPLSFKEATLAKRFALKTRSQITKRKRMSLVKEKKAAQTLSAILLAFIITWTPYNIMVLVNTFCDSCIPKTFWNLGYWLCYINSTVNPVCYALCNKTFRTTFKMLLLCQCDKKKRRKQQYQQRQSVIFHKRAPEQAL
Sequence of UniProt P13945 (whole entry, looked up): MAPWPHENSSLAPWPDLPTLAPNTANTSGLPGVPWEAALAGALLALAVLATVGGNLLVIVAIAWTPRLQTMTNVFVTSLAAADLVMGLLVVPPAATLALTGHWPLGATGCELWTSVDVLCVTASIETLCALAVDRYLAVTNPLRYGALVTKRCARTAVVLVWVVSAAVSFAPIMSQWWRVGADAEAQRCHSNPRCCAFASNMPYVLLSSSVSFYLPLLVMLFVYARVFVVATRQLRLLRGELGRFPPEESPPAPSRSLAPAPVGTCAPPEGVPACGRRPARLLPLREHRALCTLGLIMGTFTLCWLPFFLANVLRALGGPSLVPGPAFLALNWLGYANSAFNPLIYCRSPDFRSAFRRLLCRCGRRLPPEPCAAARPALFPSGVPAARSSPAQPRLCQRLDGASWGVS

Study 1 — read-out: ligand displacement; concentration: 10 µM
Compound: Cn1cncc1[C@@](O)(COc1ccc(C#N)cc1-c1ccc(OC(F)(F)F)cc1)c1ccc(C#N)cc1
target | inhibition [%]
Beta-3 adrenergic receptor (ADRB3, Homo sapiens, UniProt P13945) | -5.85
Muscarinic acetylcholine receptor M3 (CHRM3, Homo sapiens, UniProt P20309) | 2.79
Muscarinic acetylcholine receptor M1 (CHRM1, Homo sapiens, UniProt P11229) | 25.8
Alpha-2B adrenergic receptor (ADRA2B, Homo sapiens, UniProt P18089) | 20
Sodium-dependent dopamine transporter (SLC6A3, Homo sapiens, UniProt Q01959) | 6.63
Alpha-1A adrenergic receptor (ADRA1A, Homo sapiens, UniProt P35348) | 4.51
Kappa-type opioid receptor (OPRK1, Homo sapiens, UniProt P41145) | 1.27
5-hydroxytryptamine receptor 5A (HTR5A, Homo sapiens, UniProt P47898) | 0.81
Histamine H3 receptor (HRH3, Homo sapiens, UniProt Q9Y5N1) | 17.8
D(2) dopamine receptor (DRD2, Homo sapiens, UniProt P14416) | 7.47
D(3) dopamine receptor (DRD3, Homo sapiens, UniProt P35462) | 18.1

Study 2 — sample: plasma
SMILES: O=C1CCC(N2Cc3c(ccc4c3OCC43CCN(Cc4ccccc4)CC3)C2=O)C(=O)N1 (stereo not shown)
test system | setting | MRT(0-inf)
male ICR mice | oral, 3.0 mg/kg | 4.24 h and 3.26 h and 2.01 h
male CD-1 mouse | oral, 3 mg/kg | 3.17 h
rat Sprague Dawley male | intravenous, 1.0 mg/kg | 2.59 h and 2.58 h
male CD-1 mouse | intravenous, 1 mg/kg | 1.8 h
male Sprague-Dawley rat | oral, 3 mg/kg | 4.05 h
Sprague Dawley rat, male | intravenous, 1.0 mg/kg | 2.7 h

Study 3 — read-out: enzyme activity; action: inhibitor; concentration: 77 µM; relative to: untreated
Target: DNA polymerase theta, ATPase domain (POLQ, Homo sapiens, UniProt O75417)
Sequence of UniProt O75417 (whole entry, unmodified, looked up): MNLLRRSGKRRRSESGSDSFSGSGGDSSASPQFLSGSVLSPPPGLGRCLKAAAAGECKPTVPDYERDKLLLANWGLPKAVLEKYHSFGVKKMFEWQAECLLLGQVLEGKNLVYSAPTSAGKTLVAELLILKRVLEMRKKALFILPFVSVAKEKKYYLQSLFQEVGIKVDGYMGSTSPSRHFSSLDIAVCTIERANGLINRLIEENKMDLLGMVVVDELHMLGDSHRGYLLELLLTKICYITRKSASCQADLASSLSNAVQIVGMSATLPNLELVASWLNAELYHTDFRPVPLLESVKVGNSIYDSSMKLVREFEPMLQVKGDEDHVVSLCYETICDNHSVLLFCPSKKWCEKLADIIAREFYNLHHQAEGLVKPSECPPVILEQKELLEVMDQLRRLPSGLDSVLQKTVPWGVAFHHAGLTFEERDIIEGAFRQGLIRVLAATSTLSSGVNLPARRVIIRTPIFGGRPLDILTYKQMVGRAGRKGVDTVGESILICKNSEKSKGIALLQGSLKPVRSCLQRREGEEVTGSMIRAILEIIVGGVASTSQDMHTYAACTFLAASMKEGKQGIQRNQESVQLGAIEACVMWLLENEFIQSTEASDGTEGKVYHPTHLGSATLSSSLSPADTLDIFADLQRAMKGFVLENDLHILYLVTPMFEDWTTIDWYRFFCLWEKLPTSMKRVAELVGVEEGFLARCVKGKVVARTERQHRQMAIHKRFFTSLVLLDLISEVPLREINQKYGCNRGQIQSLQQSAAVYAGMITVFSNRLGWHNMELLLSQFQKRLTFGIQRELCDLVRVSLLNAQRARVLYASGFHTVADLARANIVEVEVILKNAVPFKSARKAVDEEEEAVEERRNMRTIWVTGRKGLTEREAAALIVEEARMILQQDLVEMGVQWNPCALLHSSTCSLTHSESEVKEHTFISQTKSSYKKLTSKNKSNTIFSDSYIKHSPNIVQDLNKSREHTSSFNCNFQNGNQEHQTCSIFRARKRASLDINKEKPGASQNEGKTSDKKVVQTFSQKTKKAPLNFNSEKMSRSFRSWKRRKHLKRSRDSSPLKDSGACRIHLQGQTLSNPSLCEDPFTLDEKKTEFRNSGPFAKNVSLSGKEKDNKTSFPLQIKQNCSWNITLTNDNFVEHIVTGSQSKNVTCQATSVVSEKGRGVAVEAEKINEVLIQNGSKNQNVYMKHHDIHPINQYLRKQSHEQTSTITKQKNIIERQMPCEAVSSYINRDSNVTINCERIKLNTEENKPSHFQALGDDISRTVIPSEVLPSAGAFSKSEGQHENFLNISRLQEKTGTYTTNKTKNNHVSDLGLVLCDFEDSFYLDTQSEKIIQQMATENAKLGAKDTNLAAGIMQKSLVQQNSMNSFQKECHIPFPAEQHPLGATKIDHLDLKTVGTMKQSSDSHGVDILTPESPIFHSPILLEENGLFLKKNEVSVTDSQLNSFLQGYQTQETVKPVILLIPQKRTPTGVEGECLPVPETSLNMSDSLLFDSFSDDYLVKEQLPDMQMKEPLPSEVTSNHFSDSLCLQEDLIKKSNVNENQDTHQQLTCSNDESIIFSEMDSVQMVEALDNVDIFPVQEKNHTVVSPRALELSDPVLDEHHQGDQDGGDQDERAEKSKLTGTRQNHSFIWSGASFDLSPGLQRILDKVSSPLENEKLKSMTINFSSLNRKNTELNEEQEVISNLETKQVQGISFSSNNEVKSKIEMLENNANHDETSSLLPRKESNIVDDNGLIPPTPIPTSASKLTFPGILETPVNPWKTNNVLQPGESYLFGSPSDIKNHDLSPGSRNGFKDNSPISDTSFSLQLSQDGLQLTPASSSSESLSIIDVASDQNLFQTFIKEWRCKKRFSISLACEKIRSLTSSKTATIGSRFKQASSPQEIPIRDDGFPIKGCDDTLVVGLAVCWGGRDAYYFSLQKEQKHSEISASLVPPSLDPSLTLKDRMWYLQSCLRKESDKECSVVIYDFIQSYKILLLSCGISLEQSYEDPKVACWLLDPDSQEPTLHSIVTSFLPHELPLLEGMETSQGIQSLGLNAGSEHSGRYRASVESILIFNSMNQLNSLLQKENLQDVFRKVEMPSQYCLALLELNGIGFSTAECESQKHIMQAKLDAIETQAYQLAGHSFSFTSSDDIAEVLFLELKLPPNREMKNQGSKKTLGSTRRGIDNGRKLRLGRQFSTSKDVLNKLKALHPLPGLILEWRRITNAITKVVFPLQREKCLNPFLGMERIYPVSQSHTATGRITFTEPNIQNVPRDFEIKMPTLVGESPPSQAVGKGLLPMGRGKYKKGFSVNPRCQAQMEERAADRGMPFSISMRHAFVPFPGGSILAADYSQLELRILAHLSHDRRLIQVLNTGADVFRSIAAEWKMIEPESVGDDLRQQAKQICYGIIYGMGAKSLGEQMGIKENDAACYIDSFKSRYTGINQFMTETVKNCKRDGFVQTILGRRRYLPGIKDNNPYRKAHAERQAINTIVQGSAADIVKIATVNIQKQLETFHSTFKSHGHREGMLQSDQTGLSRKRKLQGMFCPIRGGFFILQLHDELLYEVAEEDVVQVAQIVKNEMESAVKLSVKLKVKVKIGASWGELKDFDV
SMILES | remaining activity
NNC(=O)c1ccc(O)cc1 | 109%
CN1[C@@H]2CCC[C@H]1CC(=O)C2 | 100%
CO[C@H](C)[C@](O)(C(=O)OCC1=CCN2CC[C@H](O)[C@@H]12)C(C)C | 102%

Study 4 — cell line: HEK-293T-ACE2-TMPRSS2; method: cell count; concentration: 10 µM
SMILES | viability [%]
Cc1cccc(-c2nccc(Nc3ccc(C(=O)N4CCN(Cc5ccccc5)CC4)cc3)n2)c1 | 67
COC(=O)c1cc2ccc3c(c2oc1=O)CN(Cc1ccco1)CO3 | 76
CNC(=O)C(C#N)(Cc1cc(Cl)cc2c1OCOC2)Cc1cc(Cl)cc2c1OCOC2 | 101
Cc1nn(CCC(C)C)c2c1C(CCc1ccccc1)CC(=O)N2 (stereo not shown) | 65
CCCNC(=O)C1CCCN1C(=O)c1ccc(NC(=O)C(C)(C)C)cc1 (stereo not shown) | 87
Cc1ccc(N2N=C(C(=O)NCc3ccccc3F)S(=O)(=O)c3cccnc32)cc1 | 83
COc1cccc(Cl)c1-c1csc(C(N)=O)c1 | 69
CCOC(=O)c1ccc(N2N=C(C(=O)c3ccccc3)S(=O)(=O)c3ccc(F)cc32)cc1 | 71
CC(C)c1ccc(C2C3=C(COC3=O)Nc3c2c(=O)n(C)c(=O)n3C)cc1 (stereo not shown) | 68
CCSc1nc(CC(=O)N2CCC[C@H]2CO)cs1 | 67

Single results of other studies
Compound | target | assay | setting | how to read | endpoint | value
COC(=O)[C@]1(O)C[C@@H]2O[C@@]1(C)n1c3ccccc3c3c4c(c5c6ccccc6n2c5c31)C(=O)NC4 | Myosin light chain kinase, smooth muscle (MYLK, Homo sapiens, UniProt Q15746) | enzyme activity, inhibitor | 0.5 µM | relative to: control | remaining activity | 6.35%

Repeated from above (study 2):
test system | setting | MRT(0-inf)
male Sprague-Dawley rat | oral, 3 mg/kg | 4.05 h
Sprague Dawley rat, male | intravenous, 1.0 mg/kg | 2.7 h
